Measured values from different studies.
Parts stem from different laboratories: compare values within a part only. Values joined by “and” are separate records of one study, mostly repeats; a detail may differ.
Sequence of UniProt Q9HC98 (whole entry, looked up): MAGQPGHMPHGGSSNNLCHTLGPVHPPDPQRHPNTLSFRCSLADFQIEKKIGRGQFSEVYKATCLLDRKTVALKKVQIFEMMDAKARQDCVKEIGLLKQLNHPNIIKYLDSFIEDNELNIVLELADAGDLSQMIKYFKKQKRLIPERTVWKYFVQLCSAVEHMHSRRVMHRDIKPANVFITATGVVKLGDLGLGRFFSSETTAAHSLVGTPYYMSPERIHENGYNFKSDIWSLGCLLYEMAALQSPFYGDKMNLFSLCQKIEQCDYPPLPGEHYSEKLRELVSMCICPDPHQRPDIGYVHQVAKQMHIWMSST
Sequence of UniProt P16591 (whole entry, looked up): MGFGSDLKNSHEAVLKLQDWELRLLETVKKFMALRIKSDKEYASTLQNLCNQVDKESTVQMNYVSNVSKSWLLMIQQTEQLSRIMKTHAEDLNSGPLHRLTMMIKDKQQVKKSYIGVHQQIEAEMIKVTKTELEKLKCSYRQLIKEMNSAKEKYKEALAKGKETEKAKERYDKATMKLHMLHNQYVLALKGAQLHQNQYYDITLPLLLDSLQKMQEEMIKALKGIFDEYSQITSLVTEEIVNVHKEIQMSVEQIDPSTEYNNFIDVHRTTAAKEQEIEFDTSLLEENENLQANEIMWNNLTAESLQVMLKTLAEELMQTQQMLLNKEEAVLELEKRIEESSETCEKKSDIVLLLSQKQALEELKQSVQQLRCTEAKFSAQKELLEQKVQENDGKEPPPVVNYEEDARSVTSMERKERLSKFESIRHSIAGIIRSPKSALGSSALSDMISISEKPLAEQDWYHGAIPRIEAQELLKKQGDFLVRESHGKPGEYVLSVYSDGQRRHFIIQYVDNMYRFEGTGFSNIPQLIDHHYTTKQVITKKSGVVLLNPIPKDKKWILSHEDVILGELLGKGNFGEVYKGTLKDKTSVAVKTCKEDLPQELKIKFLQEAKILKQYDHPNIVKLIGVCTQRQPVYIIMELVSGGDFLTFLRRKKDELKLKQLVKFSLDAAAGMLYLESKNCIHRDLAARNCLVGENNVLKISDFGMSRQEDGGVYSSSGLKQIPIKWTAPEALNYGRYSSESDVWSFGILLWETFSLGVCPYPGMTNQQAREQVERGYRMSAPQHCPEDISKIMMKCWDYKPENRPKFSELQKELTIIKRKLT
Sequence of UniProt Q15303 (whole entry, looked up): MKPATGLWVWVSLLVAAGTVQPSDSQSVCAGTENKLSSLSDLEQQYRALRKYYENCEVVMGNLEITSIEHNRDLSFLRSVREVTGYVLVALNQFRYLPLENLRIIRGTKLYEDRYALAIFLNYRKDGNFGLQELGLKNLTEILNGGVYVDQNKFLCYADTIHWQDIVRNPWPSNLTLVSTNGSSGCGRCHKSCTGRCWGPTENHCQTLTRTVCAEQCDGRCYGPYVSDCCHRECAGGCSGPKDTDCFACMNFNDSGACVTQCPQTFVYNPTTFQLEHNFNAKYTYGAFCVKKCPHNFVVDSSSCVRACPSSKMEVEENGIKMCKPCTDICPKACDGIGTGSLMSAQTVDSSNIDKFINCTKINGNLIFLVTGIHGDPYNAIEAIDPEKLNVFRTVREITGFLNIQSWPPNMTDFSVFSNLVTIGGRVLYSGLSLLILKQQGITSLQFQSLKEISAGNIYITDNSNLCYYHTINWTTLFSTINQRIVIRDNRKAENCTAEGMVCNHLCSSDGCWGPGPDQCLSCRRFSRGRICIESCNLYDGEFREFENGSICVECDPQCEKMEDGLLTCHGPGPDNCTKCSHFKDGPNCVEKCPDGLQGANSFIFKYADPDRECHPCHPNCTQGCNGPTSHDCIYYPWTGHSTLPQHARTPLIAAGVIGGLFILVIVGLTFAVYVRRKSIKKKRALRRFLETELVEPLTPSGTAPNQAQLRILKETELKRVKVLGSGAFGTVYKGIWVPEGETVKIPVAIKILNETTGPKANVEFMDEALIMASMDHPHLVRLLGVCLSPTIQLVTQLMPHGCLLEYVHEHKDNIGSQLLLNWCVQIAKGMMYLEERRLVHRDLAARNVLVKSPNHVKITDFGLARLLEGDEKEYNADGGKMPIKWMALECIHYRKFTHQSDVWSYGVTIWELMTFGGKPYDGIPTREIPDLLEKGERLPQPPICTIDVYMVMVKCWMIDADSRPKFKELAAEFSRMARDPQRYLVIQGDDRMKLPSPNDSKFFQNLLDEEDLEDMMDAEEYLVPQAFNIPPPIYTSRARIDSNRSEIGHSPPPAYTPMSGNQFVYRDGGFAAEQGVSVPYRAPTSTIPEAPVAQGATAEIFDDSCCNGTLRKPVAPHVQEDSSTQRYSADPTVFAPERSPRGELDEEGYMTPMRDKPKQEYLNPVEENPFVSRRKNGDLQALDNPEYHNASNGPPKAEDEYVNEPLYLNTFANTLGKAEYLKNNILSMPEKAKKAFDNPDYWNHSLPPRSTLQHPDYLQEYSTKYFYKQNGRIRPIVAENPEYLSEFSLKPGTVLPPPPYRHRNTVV
Sequence of UniProt P57059 (whole entry, looked up): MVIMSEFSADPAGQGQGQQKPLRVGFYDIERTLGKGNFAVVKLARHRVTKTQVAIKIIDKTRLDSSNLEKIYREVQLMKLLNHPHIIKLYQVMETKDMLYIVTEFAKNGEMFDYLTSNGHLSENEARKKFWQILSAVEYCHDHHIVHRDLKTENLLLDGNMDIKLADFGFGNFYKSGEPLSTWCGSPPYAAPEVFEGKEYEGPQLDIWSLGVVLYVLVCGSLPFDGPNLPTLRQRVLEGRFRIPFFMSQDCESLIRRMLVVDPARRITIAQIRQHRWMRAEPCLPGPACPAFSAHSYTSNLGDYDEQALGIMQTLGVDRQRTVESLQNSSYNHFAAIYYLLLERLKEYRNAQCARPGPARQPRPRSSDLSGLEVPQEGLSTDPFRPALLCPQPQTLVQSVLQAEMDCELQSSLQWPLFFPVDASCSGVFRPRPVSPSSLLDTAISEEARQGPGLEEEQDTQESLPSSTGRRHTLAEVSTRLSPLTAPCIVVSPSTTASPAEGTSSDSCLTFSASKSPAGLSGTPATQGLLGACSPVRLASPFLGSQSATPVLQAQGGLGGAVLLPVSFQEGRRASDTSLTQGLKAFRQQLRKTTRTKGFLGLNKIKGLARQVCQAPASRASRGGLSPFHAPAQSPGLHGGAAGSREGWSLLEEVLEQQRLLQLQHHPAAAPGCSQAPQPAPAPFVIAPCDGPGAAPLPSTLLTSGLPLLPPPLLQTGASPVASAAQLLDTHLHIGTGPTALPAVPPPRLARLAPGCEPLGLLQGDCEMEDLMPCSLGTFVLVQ
Sequence of UniProt Q99683 (whole entry, looked up): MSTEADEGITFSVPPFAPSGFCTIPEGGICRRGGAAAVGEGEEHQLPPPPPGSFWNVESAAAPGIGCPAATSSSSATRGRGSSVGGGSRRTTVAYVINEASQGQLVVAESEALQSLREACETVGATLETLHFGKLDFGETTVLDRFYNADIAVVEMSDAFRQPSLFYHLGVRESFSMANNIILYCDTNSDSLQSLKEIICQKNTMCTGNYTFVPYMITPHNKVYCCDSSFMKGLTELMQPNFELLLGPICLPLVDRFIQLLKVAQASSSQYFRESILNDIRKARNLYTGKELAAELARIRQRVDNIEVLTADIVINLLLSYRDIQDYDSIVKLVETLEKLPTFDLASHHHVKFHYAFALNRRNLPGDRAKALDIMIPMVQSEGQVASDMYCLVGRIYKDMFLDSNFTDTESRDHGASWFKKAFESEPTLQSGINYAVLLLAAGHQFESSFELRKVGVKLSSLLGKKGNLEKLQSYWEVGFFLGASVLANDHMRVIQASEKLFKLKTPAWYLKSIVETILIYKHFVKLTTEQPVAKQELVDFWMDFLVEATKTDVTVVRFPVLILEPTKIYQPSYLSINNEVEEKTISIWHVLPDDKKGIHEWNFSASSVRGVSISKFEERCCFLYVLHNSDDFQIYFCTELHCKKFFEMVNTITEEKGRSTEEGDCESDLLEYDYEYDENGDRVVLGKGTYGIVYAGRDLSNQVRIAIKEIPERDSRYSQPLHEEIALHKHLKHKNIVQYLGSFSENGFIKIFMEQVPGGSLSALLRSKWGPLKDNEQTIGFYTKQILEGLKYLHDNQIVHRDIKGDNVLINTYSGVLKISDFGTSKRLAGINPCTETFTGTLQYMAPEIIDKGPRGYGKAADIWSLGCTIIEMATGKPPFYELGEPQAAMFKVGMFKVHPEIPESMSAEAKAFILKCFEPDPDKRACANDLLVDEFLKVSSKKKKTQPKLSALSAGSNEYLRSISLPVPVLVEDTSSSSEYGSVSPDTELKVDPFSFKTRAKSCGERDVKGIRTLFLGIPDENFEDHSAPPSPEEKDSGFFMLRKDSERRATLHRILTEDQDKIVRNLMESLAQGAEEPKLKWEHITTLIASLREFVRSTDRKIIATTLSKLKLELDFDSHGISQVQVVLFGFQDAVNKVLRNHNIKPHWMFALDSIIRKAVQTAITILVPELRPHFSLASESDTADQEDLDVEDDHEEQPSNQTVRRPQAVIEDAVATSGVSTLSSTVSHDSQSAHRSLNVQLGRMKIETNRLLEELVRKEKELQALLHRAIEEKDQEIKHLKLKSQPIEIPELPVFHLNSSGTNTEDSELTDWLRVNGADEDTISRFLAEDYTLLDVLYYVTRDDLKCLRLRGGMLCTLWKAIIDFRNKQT
Sequence of UniProt P78368 (whole entry, looked up): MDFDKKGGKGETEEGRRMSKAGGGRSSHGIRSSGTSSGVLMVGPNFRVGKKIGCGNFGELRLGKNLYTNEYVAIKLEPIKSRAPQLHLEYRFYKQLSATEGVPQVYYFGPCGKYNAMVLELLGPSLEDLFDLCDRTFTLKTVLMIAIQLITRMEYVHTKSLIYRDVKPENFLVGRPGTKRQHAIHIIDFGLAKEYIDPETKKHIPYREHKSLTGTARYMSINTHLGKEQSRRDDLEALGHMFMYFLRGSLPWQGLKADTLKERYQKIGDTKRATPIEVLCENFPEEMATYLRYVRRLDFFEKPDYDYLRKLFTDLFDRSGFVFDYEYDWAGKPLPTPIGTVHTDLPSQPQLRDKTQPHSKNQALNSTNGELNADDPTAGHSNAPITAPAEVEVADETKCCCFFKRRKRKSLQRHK

Study 1
Compound: CNC(=O)Nc1ccc2c(c1)[C@@]1(CC2)OC(=O)N(CC(=O)N(Cc2ccc(F)cc2)[C@@H](C)C(F)(F)F)C1=O
Tested at: 1 µM
The remaining binding was 52% (RIPK4 (Homo sapiens, UniProt P57078); cell-free assay, competition with immobilised ligand).
It gave 98% for remaining binding (PAK1 (Homo sapiens, UniProt Q13153); cell-free assay, competition with immobilised ligand).
It gave 90% for remaining binding (SIK1 (Homo sapiens, UniProt P57059); competition binding).
It gave 100% for remaining binding (MAP2K6 (Homo sapiens, UniProt P52564); cell-free assay, competition with immobilised ligand).
It gave 79% for remaining binding (FER (Homo sapiens, UniProt P16591); cell-free assay, competition with immobilised ligand).
For GAK (Homo sapiens, UniProt O14976); cell-free assay, competition with immobilised ligand: remaining binding read 100%.
It gave 100% for remaining binding (ERBB4 (Homo sapiens, UniProt Q15303); cell-free assay, competition with immobilised ligand).

Study 2
Structure (SMILES): Cc1ccc(S(=O)(=O)/C=C/C#N)cc1
Read-out: enzyme activity
Mode: inhibitor
Tested at: 0.5 µM
Baseline: control
It gave 100% for remaining activity (RPS6KA2 (Homo sapiens, UniProt Q15349)).
It gave 108% for remaining activity (NEK6 (Homo sapiens, UniProt Q9HC98)).
The remaining activity was 95% (EPHA3 (Homo sapiens, UniProt P29320)).
MAP3K5 (Homo sapiens, UniProt Q99683) — remaining activity: 100%.
The remaining activity was 103% (MAP3K14 (Homo sapiens, UniProt Q99558)).
For NEK1 (Homo sapiens, UniProt Q96PY6): remaining activity read 92.3%.
The remaining activity was 96.4% (MERTK (Homo sapiens, UniProt Q12866)).
It gave 92.6% for remaining activity (GRK7 (Homo sapiens, UniProt Q8WTQ7)).
CSNK1G2 (Homo sapiens, UniProt P78368) — remaining activity: 98.6%.
FGFR3 (Homo sapiens, UniProt P22607) — remaining activity: 95.2%.
It gave 91% for remaining activity (MAP2K2 (Homo sapiens, UniProt P36507)).
It gave 109% for remaining activity (GSK3B (Homo sapiens, UniProt P49841)).
For LCK (Homo sapiens, UniProt P06239): remaining activity read 93.7%.

Study 3
Organism: Sarcocystis neurona
Read-out: parasite growth
Tested at: concentration not given
With `CS(=O)(=O)O.O=C(O[C@H]1C[C@H]2CC3C[C@@H](C1)N2CC3=O)c1c[nH]c2ccccc12` the inhibition was -16.1%.
`CN(Cc1cnc2nc(N)nc(N)c2n1)c1ccc(C(=O)N[C@@H](CCC(=O)O)C(=O)O)cc1.O` gave an inhibition of -11.4%.
With `CN1CCC(=C2c3ccccc3CCc3sccc32)CC1.O=C(O)/C=C\C(=O)O` the inhibition was -10%.
For `CC(N/C(=N\C#N)Nc1ccncc1)C(C)(C)C.O` (centres unmarked), the inhibition was -6.7%.
With `O=C1c2c(O)cc(O)cc2OC(c2ccc(O)c(O)c2)C1O` (centres unmarked) the inhibition was -2.8%.
`CCN(CC)C(=O)C1(c2ccccc2)CC1CN.Cl` (centres unmarked) has an inhibition of -7.9%.
The inhibition of `CC[C@@H]1C(=O)OC[C@@H]1Cc1cncn1C.Cl` is reported as -15.4%.
The inhibition of `Cl.NC(N)=NC(=O)c1nc(Cl)c(N)nc1N.O` is reported as -16.4%.

Study 4
Target: GTPase KRas (KRAS, Homo sapiens, UniProt P01116, Q61L)
Read-out: binding
Mode: competitor
Method: NanoBRET
Cell line: HEK293
Tested at: 5.08 nM
With `CN1CCC[C@H]1COc1nc2c(c(N3CCN(S(C)(=O)=O)[C@@H](CC#N)C3)n1)CCN(c1cccc3cccc(Cl)c13)C2` the normalized BRET was 101% and 94.5%.
The normalized BRET of `CC(C)C(=O)N1CCN(c2nc(OC[C@@H]3CCCN3C)nc3c2CCN(c2cccc4cccc(Cl)c24)C3)C[C@@H]1CC#N` is reported as 102% and 97.1% and 94.1%.
With `CC(=O)N1CCN(c2nc(OC[C@@H]3CCCN3C)nc3c2CCN(c2cccc4cccc(Cl)c24)C3)C[C@@H]1CC#N` the normalized BRET was 104% and 92.9% and 101%.
For `CCC(=O)N1CCN(c2nc(OC[C@@H]3CCCN3C)nc3c2CCN(c2cccc4cccc(Cl)c24)C3)C[C@@H]1CC#N`, the normalized BRET was 99.2% and 97% and 102%.

Excerpt of the above (study 1):
For GAK (Homo sapiens, UniProt O14976); cell-free assay, competition with immobilised ligand: remaining binding read 100%.
It gave 98% for remaining binding (PAK1 (Homo sapiens, UniProt Q13153); cell-free assay, competition with immobilised ligand).
